Results from different studies.
A part holds a random share of what one study measured. Substitutions count along the parent as printed.

Series 1
Target: CCND1, cyclin fold, Cln2 fusion (human)
Technique: yeast growth competition, sequencing
Matrix: yeast
Notes: weak parent motif
Reference: not given
Direction: higher = stronger binding
Quantity: normalised enrichment score
Starting sequence: PKMYT1 docking peptide (human); SFEPRNLLSLFED
N6L: 1.42
L10I: 0.566
E12F: 0.886
N6A: 1.18
N6D: 0.399
P4I: -0.0198
L8H: 1.45
L10E: 1.54

Series 2
Target: Hepatocyte nuclear factor 3-beta, forkhead domain (FOXA2, Homo sapiens, UniProt Q9Y261, residues 142-269)
Technique: protein-binding microarray
Molecule type: double-stranded DNA, one strand shown
Matrix: in vitro
Tested at: not given
Notes: k-mer, scored over probes, only values ≥0.25
Direction: higher = stronger binding
Quantity: E-score
Target sequence (chain): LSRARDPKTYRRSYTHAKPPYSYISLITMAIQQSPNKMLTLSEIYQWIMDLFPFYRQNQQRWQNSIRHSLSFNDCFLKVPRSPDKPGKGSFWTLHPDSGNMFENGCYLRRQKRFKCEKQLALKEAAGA
AATGCATT: 0.292
ATCATAGC: 0.25
AAACTACT: 0.262
ATTGTTAC: 0.393
AGTGTAAG: 0.258
TATGTTAA: 0.339
CTACACAA: 0.287
TCATCACA: 0.255

Series 3
Target: Interferon regulatory factor 7, full length, phosphomimetic (IRF7, Homo sapiens, UniProt Q92985, residues 1-503, S471D/S472D/S475D/S476D/S477D/S483D/S484D/S487D)
Technique: protein-binding microarray
Molecule type: double-stranded DNA, one strand shown
Matrix: in vitro
Tested at: 2200 nM top
Notes: 60-bp whole probe
Together with: salmon DNA 0.4 mg/ml
Reference: random background probes
Direction: higher = stronger binding
Quantity: fitted relative affinity
All sequences stand within: GCCTAGCAC … GTCTTGATTCGCTTGACGCTGCTG
Construct (chain): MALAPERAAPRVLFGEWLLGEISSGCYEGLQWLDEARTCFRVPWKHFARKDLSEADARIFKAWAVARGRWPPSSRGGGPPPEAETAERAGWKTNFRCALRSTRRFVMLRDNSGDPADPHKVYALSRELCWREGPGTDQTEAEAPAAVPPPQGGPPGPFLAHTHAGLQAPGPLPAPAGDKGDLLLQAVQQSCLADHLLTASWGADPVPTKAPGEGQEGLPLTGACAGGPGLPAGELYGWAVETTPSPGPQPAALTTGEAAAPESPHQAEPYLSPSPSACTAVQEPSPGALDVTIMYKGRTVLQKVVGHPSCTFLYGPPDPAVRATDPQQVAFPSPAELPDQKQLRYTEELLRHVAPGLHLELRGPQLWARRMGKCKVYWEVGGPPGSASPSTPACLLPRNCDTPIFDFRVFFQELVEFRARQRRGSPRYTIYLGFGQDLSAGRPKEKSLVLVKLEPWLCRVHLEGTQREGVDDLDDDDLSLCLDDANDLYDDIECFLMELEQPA
TGATCTCTGGTCTTTGTCAGGTGCTAG: 0.994 z-score
GACAAACTGAGTTTCGAGACGTGCTAG: 2.17 z-score
TTAGATTTCTGGACTGGATTAGTGCTA: 0.056 z-score
TTAAATATCAGTATCGATTAGTGCTAG: 0.0271 z-score
TTACGACTGGGTATCGGTTAGTGCTAG: 0.859 z-score
CGGATGATCTCTCTGGGCAAGTGCTAG: -0.411 z-score
TTAGGTTTCCTTCTCCTTCAGTGCTAG: 2.47 z-score
GACGACTCCAGTTTCGAGACGTGCTAG: 3.67 z-score

Mixed results
CC(C)Cc1csc2nc(O)n3nc(-c4ccco4)nc3c12  remaining compound (mouse, microsomes or S9; 2 µM, 0.5 h): 54.6%

Repeated from above (series 2):
ATCATAGC: 0.25
ATTGTTAC: 0.393
TATGTTAA: 0.339
